Assay results collected from several papers.
Compare with care: the assays were run in different laboratories. ± marks the error that the study gave.

COC(=O)C[C@H](NC(=O)[C@H](C)NC(=O)[C@@H](NC(=O)[C@H](CC(=O)OC)NC(=O)[C@@H](NC(=O)c1ccc2ccccc2n1)C(C)C)C(C)C)C(=O)COc1c(F)cccc1F  heart rate and QTc (telemetry; conscious dog; intravenous, up to 3 mg/kg): no effect
CC[C@H](C)[C@H](NC(=O)[C@H](CO)NC(=O)[C@H](CCCCN)NC(=O)[C@@H](NC(=O)[C@@H](NC(=O)[C@H](CC(=O)O)NC(=O)[C@H](CCC(=O)O)NC(=O)[C@@H](NC(=O)[C@H](CO)NC(=O)[C@@H](N)CCCNC(=N)N)[C@@H](C)O)[C@@H](C)CC)[C@@H](C)CC)C(=O)N[C@@H](CO)C(=O)NCC(=O)NCC(=O)NCC(=O)N[C@@H](Cc1ccccc1)C(=O)N[C@@H](CC(C)C)C(=O)N[C@@H](CC(N)=O)C(=O)N[C@@H](C)C(=O)N[C@@H](CCSC)C(=O)N[C@@H](CC(N)=O)C(=O)N[C@@H](C)C(N)=O  toxicity (zebrafish embryos; 1, 5, 25 µM, 4, 28, 52 hpf): not toxic
O=c1cc(-c2ccccc2)oc2c(Br)c(O)c(O)c(O)c12  MRT(0-t) (C57BL/6 mouse, plasma; oral, 250 mg/kg, single dose): 7.5 h
CC(C)[C@H](NC(=O)CNC(=O)[C@H](CCC(N)=O)NC(=O)[C@H](C)N)C(=O)O  subjects with any adverse event (human; 1 mg/kg single dose): 16.7%
O=C1N[C@H]2[C@H](CS[C@H]2CCCCC(=O)OCc2ccnc(-c3cc(COC(=O)CCCC[C@@H]4SC[C@@H]5NC(=O)N[C@@H]54)ccn3)c2)N1.O=S(=O)([O-])C(F)(F)F.[Ru+2].c1cc[cH-]c1.c1ccc(P(c2ccccc2)c2ccccc2)cc1  LC50 (zebrafish embryos): 5.73 µg/mL
Cc1ccc(/C=C/C(=O)O)cc1-c1cc2c(cc1C)C(C)(C)CCC2(C)C  HDL level (Sprague-Dawley rat, male, plasma; oral, 100 mg/kg, 2 h, sesame oil vehicle): 66 ± 6.1 mg/dL
CC[C@H](C)CCCCC(=O)N[C@@H](CCN)C(=O)N[C@H](C(=O)N[C@@H](CCN)C(=O)N[C@H]1CCNC(=O)[C@H]([C@@H](C)O)NC(=O)[C@H](CCN)NC(=O)[C@H](CCN)NC(=O)[C@H](CC(C)C)NC(=O)[C@@H](Cc2ccccc2)NC(=O)[C@H](CCN)NC1=O)[C@@H](C)O  zeta potential (pH 6.0): 10.4 mV
O=P1(NCCCl)NCCCO1 (stereo not drawn)  Tmax (rat, plasma; intravenous, 10 mg/kg, added: ketoconazole 40 mg/kg oral 50 min before): 3.67 ± 1.21 h
O=C(NCCCCCCCn1ccc2ccccc21)Oc1ccccc1  parent remaining (rat liver S9 fraction; 30 min, added: NADPH): 59 ± 3%
CC(=O)NC(Cc1ccc(Br)c(Cl)c1)C(=O)N[C@@H](C)C(=O)N1CCC[C@H]1C(=O)N1CCC[C@H]1C(=O)N[C@@H](CCC(=O)O)C(=O)N[C@@H](Cc1c[nH]cn1)C(=O)N[C@@H](CO)C(=O)N[C@H](C(=O)N[C@@H](C)C(N)=O)[C@@H](C)OP(=O)(O)O (stereo partly drawn)  compound remaining (chemical stability; human, serum; 5 µM, 2 h): ~75%
CCCCCCCCCCCCC(=O)O.O=C1CCCC2C3CCCN4CCCC(CN12)C34 (stereo not drawn)  entropic term −TΔS of micellization (electrical conductivity; water; 303.15 K, critical micelle concentration): -7.35 kcal/mol
CCN(CC)CCOc1ccc(-c2nnn(Cc3ccc(OC)cc3)c2N)cc1  plasma stability (in vitro incubation; human plasma; 120 min): stable
O=S(=O)(O)C(F)(F)C(F)(F)OC(F)(C(F)(F)F)C(F)(F)OC(F)C(F)(F)F (stereo not drawn)  elimination half-life (two-sample first-order model; human, both sexes, serum): 296 days
CC(=O)OC1O[C@@H]2O[C@@]3(C)CC[C@H]4[C@H](C)CCC([C@H]1C)[C@@]24OO3 (stereo partly drawn)  dead embryos (Tg(fli1:EGFP) zebrafish embryos; 100 µg/mL, up to 48 hpf): 4 count
CC[C@H](C)[C@H](NC(=O)[C@H](C)NC(=O)[C@H](CCCCN)NC(=O)[C@H](CC(C)C)NC(=O)[C@H](Cc1ccccc1)NC(=O)[C@@H](N)CC[Se]C)C(=O)N[C@@H](CCCCN)C(=O)N[C@@H](CCCCN)C(=O)N[C@@H](Cc1ccccc1)C(=O)NCC(=O)N[C@@H](CCCCN)C(=O)N[C@@H](CCC(=O)O)C(=O)N[C@@H](Cc1ccccc1)C(=O)N[C@@H](CCCCN)C(=O)N[C@@H](CCCCN)C(=O)N[C@H](C(=O)NCC(=O)N[C@@H](C)C(=O)N[C@@H](CCCCN)C(=O)N[C@@H](CC(C)C)C(=O)N[C@@H](CCCCN)C(=O)O)[C@@H](C)CC  time to complete elimination (measured: selenium; mice, serum; intraperitoneal, 70 mg/kg): 10 min
COc1cc(NC(=O)C(=O)c2c(C)n(Cc3ccc(Cl)cc3)c3ccc(C)cc23)ccn1  clearance (female cynomolgus monkey, plasma; intravenous, 1 mg/kg): 10.7 mL/min/kg
CC[C@H](C)C(=O)N1CCC(NC(=O)Nc2ccc(OC(F)(F)F)c(F)c2)CC1  subjects with any TEAE (healthy volunteers; oral, 0.5 mg single dose, 14 (unit not given)): 33.3%
CN(C)C(CNC(=O)Nc1cc(C(F)(F)F)ccc1N1CCOCC1)c1ccncc1 (stereo not drawn)  serum cholesterol (mouse, serum; intraperitoneal, 240 mg/kg single dose): 68 mg/dL
CCc1c2c(nc3ccc(OC4OC(C(=O)O)C(O)C(O)C4O)cc13)-c1cc3c(c(=O)n1C2)COC(=O)C3(O)CC (stereo not drawn)  Cmax (human patients, plasma; intravenous, 75 mg/m^2 of parent drug): 45 ng/mL
COC(=O)C[C@](O)(CCCC(C)(C)OC(C)=O)C(=O)O[C@@H]1C(OC)=C[C@]23CCCN2CCc2cc4c(cc2[C@H]13)OCO4  tissue concentration (CD1 mouse, heart; subcutaneous, 1 mg/kg, 0.5 h): 286 ng/mL
CC(C)C[C@@H](NC(=O)[C@@H](CCCCN)NC(=O)CNC(=O)CNC(=O)[C@@H]1CSSC[C@H](N)C(=O)NCC(=O)N[C@@H](CCCNC(=N)N)C(=O)N[C@@H](CCCNC(=N)N)C(=O)N[C@@H](C)C(=O)NCC(=O)NCC(=O)N[C@@H](CO)C(=O)N1)C(=O)N[C@H](C)C(=O)N[C@H](CCCCN)C(=O)N[C@H](CC(C)C)C(=O)N[C@H](C)C(=O)N[C@H](CCCCN)C(=O)N[C@H](CCCCN)C(=O)N[C@H](CC(C)C)C(=O)N[C@H](C)C(=O)N[C@H](CCCCN)C(=O)N[C@H](CC(C)C)C(=O)N[C@H](C)C(=O)N[C@H](CCCCN)C(=O)O  clearance (cynomolgus monkey, plasma; intravenous, 9 mg/kg, infusion): 44.2 mL/min

For quick reference, copied from above:
O=C1N[C@H]2[C@H](CS[C@H]2CCCCC(=O)OCc2ccnc(-c3cc(COC(=O)CCCC[C@@H]4SC[C@@H]5NC(=O)N[C@@H]54)ccn3)c2)N1.O=S(=O)([O-])C(F)(F)F.[Ru+2].c1cc[cH-]c1.c1ccc(P(c2ccccc2)c2ccccc2)cc1  LC50 (zebrafish embryos): 5.73 µg/mL
CC(=O)NC(Cc1ccc(Br)c(Cl)c1)C(=O)N[C@@H](C)C(=O)N1CCC[C@H]1C(=O)N1CCC[C@H]1C(=O)N[C@@H](CCC(=O)O)C(=O)N[C@@H](Cc1c[nH]cn1)C(=O)N[C@@H](CO)C(=O)N[C@H](C(=O)N[C@@H](C)C(N)=O)[C@@H](C)OP(=O)(O)O (stereo partly drawn)  compound remaining (chemical stability; human, serum; 5 µM, 2 h): ~75%
